Results pooled from the literature.
Each numbered part is a random draw from the data of one study; scales do not carry over between parts.

Block 1 — technique: RNA Bind-n-Seq; form: RNA; sample: in vitro; tested at: 20 nM; notes: 6-mer, flanks averaged, single round; together with: 150 mM LiCl; reference: input library; reading: higher = stronger binding
Target: TAR DNA-binding protein 43, full length, His tag (TARDBP, Homo sapiens, UniProt Q13148, residues 1-414)
Strand	6-mer enrichment (R)
UAAGCU	0.851
UUAGUU	1.09
AAACUU	0.87
UACUUC	0.845
GACCGC	0.877
UGCGUU	1.13
AUCGCC	0.871
CACAAG	0.836
AGCUUG	0.93
CCGGCU	0.905
AAGCCC	0.927
AUUAAU	0.978
CGUAAC	0.821
CUUAAA	0.882
UUAUGG	1.12
ACAGAG	0.872
ACCUGC	0.891
AGGGUU	1.02
UUGUUU	1.5
ACGGUC	0.825
AAUUUA	1.04
AAUAUC	0.869
CGGCUA	0.891
CGCAGC	0.916
UAGGGA	1.04

Block 2 — technique: protein-binding microarray; form: double-stranded DNA, one strand shown; sample: in vitro; tested at: 250 nM; notes: 60-bp whole probe; together with: salmon DNA 0.4 mg/ml; reference: random background probes; reading: higher = stronger binding; shared flanks, not repeated: GCCTAGCAC … GTCTTGATTCGCTTGACGCTGCTG
Target: Interferon regulatory factor 7, full length, phosphomimetic (IRF7, Homo sapiens, UniProt Q92985, residues 1-503, S101K/S471D/S472D/S475D/S476D/S477D/S483D/S484D/S487D)
Residues (chain): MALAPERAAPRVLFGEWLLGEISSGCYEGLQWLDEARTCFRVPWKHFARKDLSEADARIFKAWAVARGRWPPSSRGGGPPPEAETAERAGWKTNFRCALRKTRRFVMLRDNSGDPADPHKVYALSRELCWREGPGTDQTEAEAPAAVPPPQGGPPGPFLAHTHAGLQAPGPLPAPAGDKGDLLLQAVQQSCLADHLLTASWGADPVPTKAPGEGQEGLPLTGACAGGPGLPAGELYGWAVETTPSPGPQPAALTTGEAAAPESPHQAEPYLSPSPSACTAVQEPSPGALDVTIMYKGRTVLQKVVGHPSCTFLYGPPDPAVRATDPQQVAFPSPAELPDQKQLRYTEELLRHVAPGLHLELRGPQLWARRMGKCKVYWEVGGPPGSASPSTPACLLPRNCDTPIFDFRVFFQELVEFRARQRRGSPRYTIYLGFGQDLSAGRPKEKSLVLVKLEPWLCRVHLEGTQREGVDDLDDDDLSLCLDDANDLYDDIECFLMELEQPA
Strand	log fluorescence
TTAGGACTGCTTCGCCTTTAGTGCTAG	0.6 z-score
AGCCGAACAGCAATCGGATGGTGCTAG	-0.817 z-score
GACGGTCTCGGTTTCGGTACGTGCTAG	9.06 z-score
TCAAGCCTCTGCATTCCCACTGTGCTA	-0.816 z-score
GACTGTCTCCTACTGCTGACGTGCTAG	0.136 z-score
TTAGGACTGGACACTGGGTAAGTGCTA	-0.582 z-score
TGTCTTTTCACTTTCTTTAAGTGCTAG	2.46 z-score
AACGGACTGGGGACTGGGGACGTGCTA	-0.346 z-score
GACGATATCGGGACTGGTGACGTGCTA	-0.365 z-score
GACGTTTCCAGTTTCGAGACGTGCTAG	6.46 z-score
GACGGTATGGGTATCGGGACGTGCTAG	-0.163 z-score
GACAGTCTCGGTATCGGGACGTGCTAG	2.05 z-score
GACGAACTGAGGTTTCGAGACGTGCTA	2.99 z-score
AGAATCTTAGATATTAAACTGTGCTAG	-0.0521 z-score
GACGGACTGGGGCTCGGGACGTGCTAG	-0.511 z-score
GACGGTCTCGGTATCCGGACGTGCTAG	2.76 z-score

Block 3 — technique: protein-binding microarray; form: double-stranded DNA, one strand shown; sample: in vitro; tested at: not given; reading: higher = stronger binding
Target: Protein max, full length (MAX, Homo sapiens, UniProt P61244-2, residues 1-151)
Notes: k-mer, scored over probes, only values ≥0.25
Strand	E-score
GCGTGTAC	0.414
AGCCACAT	0.369
AACATGAT	0.275
CGTGGACA	0.378
GGGCGTGA	0.31
ACATGCCC	0.371
ACCATGCC	0.375
CCACGGGG	0.386
AACAGCGT	0.305
ATCCACGA	0.284
ATATGCAC	0.259
CGTGACTA	0.405
GCACACGA	0.308
GCGTGCCC	0.374
GTGATCAC	0.267
GTGGTCCA	0.276
GTCACGCA	0.337
GCGTGGAC	0.388

Block 4 — technique: protein binding microarray; form: double-stranded DNA, one strand shown; sample: in vitro; tested at: not given; reference: not given; reading: higher = stronger binding
Target: Histone acetyltransferase KAT6A, winged helix 1, GST fusion (KAT6A, Homo sapiens, UniProt Q92794, residues 1-85)
Notes: 8-mer, flanks averaged, mean of 2 arrays, mostly near background
Construct (chain): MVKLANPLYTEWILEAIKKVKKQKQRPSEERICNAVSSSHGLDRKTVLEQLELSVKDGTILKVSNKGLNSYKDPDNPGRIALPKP
Strand	E-score
CGGTTGTC	0.11
ACGAGGAG	-0.272
CTCCCTTC	-0.14
AACTAGCA	-0.163
ACAGAAGA	-0.11
CGCGGCTA	0.452
GACAAAGC	0.0705
AGTGAGTC	-0.0962
GTGAGAAA	-0.0359
TGCGAAAA	0.106
AATGACCG	0.103
CGTTTCTC	-0.00295
ATTCCGAA	0.0433
CCGGGTCG	0.316
AACAACGA	-0.158
AGACCGGC	0.267

Block 5 — technique: RNA Bind-n-Seq; form: RNA; sample: in vitro; tested at: 365 nM; reference: no-protein control; reading: higher = stronger binding
Target: RNA binding protein fox-1 homolog 2, RRM domain, GST-SBP tag (RBFOX2, Homo sapiens, UniProt O43251-10, residues 100-194)
Notes: natural RNA segment, single round, ends assumed
Target sequence (chain): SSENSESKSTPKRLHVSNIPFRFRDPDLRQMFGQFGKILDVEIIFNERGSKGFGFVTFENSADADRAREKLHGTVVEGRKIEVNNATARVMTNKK
Strand	RBNS enrichment (R)
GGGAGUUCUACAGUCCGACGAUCGUGGAGUCUUGUGUACUAAAGUGCUAUCCGCUGGGCCUUUGGGAUUGAAGCAGUAGAAAGCGAAAAGGCUGGGCACCAGGCUUCAAUCUCUGAGAAUCUAAACUCUUACCUGGAAUUCUCGGGUGCCAA	0.314
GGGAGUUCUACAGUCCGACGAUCUUUUGUUGUGCUUUUUUGUAACUGUUUUAAAUAAAUCAAUUUGUACUGUAUAUUUGUACUUUUGUGAGAUCCUUUUUGCUGUUUUACCAUUUUAAGUCUCUGUACUUGGCUGGAAUUCUCGGGUGCCAA	0.815
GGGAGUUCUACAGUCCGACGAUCGAACCACUUGAGACUGAGACUGUCCCCUCCAGCUGUGCUGUACUUCCAGGUGCGCACUUUAAAGAAAGUGGCCACCAGGUGUGAUGGUGCAGUCCUAUAGUAACCGAGCUUGGAAUUCUCGGGUGCCAA	0.293
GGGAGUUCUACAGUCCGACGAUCGAACUUUUUCGCUUCUGUAAGUAUGCUCUAUGCACCUCUAACGUUUUAUCCUGUAUUUAUAUGUUGUACACAGUACUGGCCAAUUCUGUAAAUGGAUGUAUUGUACAGAGUGGAAUUCUCGGGUGCCAA	0.639
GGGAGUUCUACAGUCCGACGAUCAUGAAUUCAUUGGAAUUUGUGUUGCAUGUAAGGCAAUCUUUCCUGUUGUAAAUCUUCCUUUUUUAAUGUACAUAUAUUUUGAAAAAUAUGAAUAAACAUGAAAUUUUAAAUGGAAUUCUCGGGUGCCAA	11.3
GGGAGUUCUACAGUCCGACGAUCAGGGUAAUGAGGCAAAUGUACUAAAAUGAAUGAUAUAAAACAGUCUCUUCAUUUCUUGAGGUUGGUAAAAUUAUCGAACAAAGUCCUAAUAUGCCCAAAACUCAGAUCUUUGGAAUUCUCGGGUGCCAA	0.407
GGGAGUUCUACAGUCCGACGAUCCCGCCCUGCCCUCCGCCGCUCCGCCUGAGCUCCCCGGUUUGCAGAAUGGAGGAGGGAAGUUGAAGGAGCCACCUCCUCUGUCUACCCACCCGUCCCCUUCACGCCCUUGAUGGAAUUCUCGGGUGCCAA	0.403
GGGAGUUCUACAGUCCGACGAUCCUCACCUAGAUUACACUCAAUUGAUACCCACUCAUGAAGAUUUUGCUGAGAUUUUAUGAUUCCAGGUUCAGGGGUGAGAAGGAUUCUGGUACCUGAUACCUGUUGGAGAUUGGAAUUCUCGGGUGCCAA	0.621

Excerpt of the above (block 5):
Strand	RBNS enrichment (R)
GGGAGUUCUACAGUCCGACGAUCGUGGAGUCUUGUGUACUAAAGUGCUAUCCGCUGGGCCUUUGGGAUUGAAGCAGUAGAAAGCGAAAAGGCUGGGCACCAGGCUUCAAUCUCUGAGAAUCUAAACUCUUACCUGGAAUUCUCGGGUGCCAA	0.314
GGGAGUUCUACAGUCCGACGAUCUUUUGUUGUGCUUUUUUGUAACUGUUUUAAAUAAAUCAAUUUGUACUGUAUAUUUGUACUUUUGUGAGAUCCUUUUUGCUGUUUUACCAUUUUAAGUCUCUGUACUUGGCUGGAAUUCUCGGGUGCCAA	0.815
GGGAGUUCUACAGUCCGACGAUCGAACCACUUGAGACUGAGACUGUCCCCUCCAGCUGUGCUGUACUUCCAGGUGCGCACUUUAAAGAAAGUGGCCACCAGGUGUGAUGGUGCAGUCCUAUAGUAACCGAGCUUGGAAUUCUCGGGUGCCAA	0.293
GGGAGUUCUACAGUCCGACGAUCGAACUUUUUCGCUUCUGUAAGUAUGCUCUAUGCACCUCUAACGUUUUAUCCUGUAUUUAUAUGUUGUACACAGUACUGGCCAAUUCUGUAAAUGGAUGUAUUGUACAGAGUGGAAUUCUCGGGUGCCAA	0.639
